Assay results pooled from the literature.
Compare with care: the assays were run in different laboratories.
Cell line: PC-3
Effect on: cell growth or viability

| SMILES | test | conditions | IC50 |
| --- | --- | --- | --- |
| C=CCc1ccc(OCc2nnc(SCC(=O)Nc3cccc(C)c3)o2)c(OC)c1 | MTT | 72 h | 24.3 µM |
| C[C@]1([N+](=O)[O-])C(=O)c2cccc(F)c2O[C@@H]1CC(=O)NC12CC3CC(CC(C3)C1)C2 | SRB | 96 h | 3.02 µM |
| O=C1Nc2ccccc2C1=Cc1cc2cc(Br)ccc2nc1Cl | MTT | 72 h | > 100 µM |
| CN1CCC2(CC1)C/C(=N\N=C\c1ccc(O)cc1)c1ccccc1O2 | MTT | 48 h | 2.37 µM |
| COC(=O)c1c(-c2cccc(O)c2)c2n(c1C(=O)OC)CCn1cccc1-2 | MTT | 48 h | 90.8 µM |
| C=CCNC(=S)NNC(=O)COc1ccc2c(C)c(CC)c(=O)oc2c1C | MTT | – | > 50 µM |
| COC(=O)c1c(-c2ccccc2F)c2n(c1C(=O)OC)CCn1cccc1-2 | MTT | 48 h | 89.1 µM |
| CN(C)C(=O)C[C@H]1Oc2ccccc2C(=O)[C@]1(C)[N+](=O)[O-] | SRB | 96 h | > 50 µM |
| CCNC(=S)NNC(=O)COc1ccc2c(C)c(CC)c(=O)oc2c1C | MTT | – | > 50 µM |
| COc1ccc2nc(Cl)c(C=C3C(=O)Nc4ccccc43)cc2c1 | MTT | 72 h | > 100 µM |
| N#CCC(=O)Nc1nnc(NC(=O)c2ccccc2)s1 | MTT | 48 h | 39.2 µM |
| COc1cccc2c1C(=O)c1c(O)c3c(c(O)c1C2=O)C[C@@](O)(C(=O)CO)C[C@@H]3O[C@H]1C[C@H](N)[C@H](O)[C@H](C)O1 | MTT | 72 h | 2.61 µM |
| Cc1c(Cc2ccccc2)c(=O)oc2c(C)c(OCC(=O)NN=Cc3ccc(Cl)cc3)ccc12 | MTT | – | > 50 µM |
| C[C@]1([N+](=O)[O-])C(=O)c2ccccc2O[C@@H]1CC(N)=O | SRB | 96 h | 23.2 µM |
| O=C1Nc2ccccc2C1=Cc1cc2ccc(Cl)cc2nc1Cl | MTT | 72 h | > 100 µM |
| CCCCCCCCNC(=O)C[C@H]1Oc2ccccc2C(=O)[C@]1(C)[N+](=O)[O-] | SRB | 96 h | 4.83 µM |
| CCc1c(C)c2ccc(OCC(=O)NN=Cc3ccc([N+](=O)[O-])cc3)cc2oc1=O | MTT | – | 10.2 µM |
| C[C@]1([N+](=O)[O-])C(=O)c2ccccc2O[C@@H]1CC(=O)NC12CC3CC(CC(C3)C1)C2 | SRB | 96 h | 3.09 µM |
| CCCOc1ccc2c(C)c(CC)c(=O)oc2c1C | MTT | – | > 50 µM |
| CN1CCC2(CC1)C/C(=N\N=C\c1ccc(N(C)C)cc1)c1ccccc1O2 | MTT | 48 h | 59.2 µM |
| CCC(=O)O[C@H]1[C@H](C)O[C@@H](O[C@H]2[C@H](N(C)C)[C@@H](O)[C@H](O[C@H]3[C@@H](CC=O)C[C@@H](C)[C@@H](O)/C=C/C=C/C[C@@H](C)OC(=O)C[C@@H](O)[C@@H]3OC)O[C@@H]2C)C[C@@]1(C)O | crystal violet | 72 h | > 50 µM |
| CCCCNC(=O)C[C@H]1Oc2ccccc2C(=O)[C@]1(C)[N+](=O)[O-] | SRB | 96 h | 9.97 µM |

| SMILES | test | conditions | IC50 |
| --- | --- | --- | --- |
| COC(=O)c1c(-c2cccc([N+](=O)[O-])c2)c2n(c1C(=O)OC)CCn1cccc1-2 | MTT | 48 h | 40.6 µM |
| Cc1cc(C)n(-c2nnc(NC(=O)c3ccccc3)s2)c(=O)c1C#N | MTT | 48 h | 15.4 µM |
| CCc1c(C)c2ccc(OCc3nnc(S)n3N)c(C)c2oc1=O | MTT | – | > 50 µM |
| Cc1ccc(-c2cc(-c3ccc(Cl)cc3)c3c(=O)[nH]c(=O)[nH]c3n2)cc1 | MTT | 48 h | > 10 µM |
| C[C@]1([N+](=O)[O-])C(=O)c2ccccc2O[C@@H]1CC(=O)Nc1ncccn1 | SRB | 96 h | > 50 µM |
| Cc1cc2cc(C=C3C(=O)Nc4ccccc43)c(Cl)nc2cc1C | MTT | 72 h | > 100 µM |
| COc1cccc(-c2c3n(c4c(=O)[nH]nc(O)c24)CCn2cccc2-3)c1 | MTT | 48 h | 79 µM |
| N#CC(=Cc1ccc(Cl)cc1)C(=O)Nc1nnc(NC(=O)c2ccccc2)s1 | MTT | 48 h | 21.9 µM |
| COC(=O)c1c(-c2ccc(C)cc2)c2n(c1C(=O)OC)CCn1cccc1-2 | MTT | 48 h | 89.3 µM |
| COc1ccc2c(c1)C(=O)[C@](C)([N+](=O)[O-])[C@@H](CC(=O)NC13CC4CC(CC(C4)C1)C3)O2 | SRB | 96 h | 6.77 µM |
| O=C(Nc1nnc(NC(=O)c2cc3ccccc3oc2=O)s1)c1ccccc1 | MTT | 48 h | 66.5 µM |
| COC(=O)c1c(-c2cccc(Br)c2)c2n(c1C(=O)OC)CCn1cccc1-2 | MTT | 48 h | 80.7 µM |
| N#CC(=Cc1ccco1)C(=O)Nc1nnc(NC(=O)c2ccccc2)s1 | MTT | 48 h | 13.3 µM |
| C=CCc1ccc(OCc2nn(CN3CCOCC3)c(=S)o2)c(OC)c1 | MTT | 72 h | 1.1 µM |
| O=C1Nc2ccccc2C1=Cc1cc2ccccc2nc1Cl | MTT | 72 h | > 100 µM |
| N#CC(=Cc1cccs1)C(=O)Nc1nnc(NC(=O)c2ccccc2)s1 | MTT | 48 h | 11.1 µM |
| COC(=O)c1c(-c2ccc(F)cc2)c2n(c1C(=O)OC)CCn1cccc1-2 | MTT | 48 h | 89.7 µM |
| N#CC(C(=O)Nc1nnc(NC(=O)c2ccccc2)s1)=C1Oc2cccnc2O1 | MTT | 48 h | 31.4 µM |
| CC(=NNC(=O)COc1ccc2c(C)c(Cc3ccccc3)c(=O)oc2c1C)c1ccc(Br)cc1 | MTT | – | 3.56 µM |
| COc1ccc(-c2c3n(c4c(=O)[nH]nc(O)c24)CCn2cccc2-3)cc1 | MTT | 48 h | 68.3 µM |
| N#CC(C(=O)Nc1nnc(NC(=O)c2ccccc2)s1)=C1Nc2ccccc2N1 | MTT | 48 h | 81.8 µM |

Repeated from above:
| SMILES | test | conditions | IC50 |
| --- | --- | --- | --- |
| O=C1Nc2ccccc2C1=Cc1cc2ccccc2nc1Cl | MTT | 72 h | > 100 µM |
| N#CC(=Cc1cccs1)C(=O)Nc1nnc(NC(=O)c2ccccc2)s1 | MTT | 48 h | 11.1 µM |
| COC(=O)c1c(-c2ccc(F)cc2)c2n(c1C(=O)OC)CCn1cccc1-2 | MTT | 48 h | 89.7 µM |
| N#CC(C(=O)Nc1nnc(NC(=O)c2ccccc2)s1)=C1Oc2cccnc2O1 | MTT | 48 h | 31.4 µM |
